{"sequences": {"note": "Amino acid sequences for entries named in this document (tags omitted). Residues count along the entry.", "UniProt Q13546, whole entry": "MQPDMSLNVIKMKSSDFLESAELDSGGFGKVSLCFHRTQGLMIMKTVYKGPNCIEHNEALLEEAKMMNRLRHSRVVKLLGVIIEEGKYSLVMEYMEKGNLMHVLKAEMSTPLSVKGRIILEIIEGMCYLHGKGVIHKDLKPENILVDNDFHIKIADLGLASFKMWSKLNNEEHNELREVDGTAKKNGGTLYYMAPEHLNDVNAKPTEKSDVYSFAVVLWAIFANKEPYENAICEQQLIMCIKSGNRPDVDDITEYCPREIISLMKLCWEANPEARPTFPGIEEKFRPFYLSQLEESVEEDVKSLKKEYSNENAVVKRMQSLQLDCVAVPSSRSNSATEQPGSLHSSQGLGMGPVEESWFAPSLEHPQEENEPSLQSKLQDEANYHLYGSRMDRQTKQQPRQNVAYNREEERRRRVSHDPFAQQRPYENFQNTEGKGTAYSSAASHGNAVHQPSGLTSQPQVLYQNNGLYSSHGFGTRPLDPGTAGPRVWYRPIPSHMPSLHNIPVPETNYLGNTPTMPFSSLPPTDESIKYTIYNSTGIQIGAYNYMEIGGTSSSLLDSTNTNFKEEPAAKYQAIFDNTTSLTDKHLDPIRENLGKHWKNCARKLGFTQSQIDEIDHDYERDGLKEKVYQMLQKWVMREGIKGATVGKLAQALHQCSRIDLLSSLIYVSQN", "UniProt P46154, whole entry": "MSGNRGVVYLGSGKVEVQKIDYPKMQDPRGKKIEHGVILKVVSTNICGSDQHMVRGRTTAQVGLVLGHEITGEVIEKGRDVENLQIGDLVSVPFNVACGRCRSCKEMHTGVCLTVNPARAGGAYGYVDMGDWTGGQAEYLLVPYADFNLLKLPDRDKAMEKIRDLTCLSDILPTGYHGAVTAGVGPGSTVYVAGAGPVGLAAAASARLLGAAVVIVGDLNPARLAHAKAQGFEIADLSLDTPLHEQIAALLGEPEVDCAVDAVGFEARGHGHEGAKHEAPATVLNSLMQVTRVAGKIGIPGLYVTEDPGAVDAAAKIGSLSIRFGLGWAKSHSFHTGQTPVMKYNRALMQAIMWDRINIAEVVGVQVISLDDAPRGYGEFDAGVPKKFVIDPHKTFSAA", "UniProt Q8N6T7, whole entry": "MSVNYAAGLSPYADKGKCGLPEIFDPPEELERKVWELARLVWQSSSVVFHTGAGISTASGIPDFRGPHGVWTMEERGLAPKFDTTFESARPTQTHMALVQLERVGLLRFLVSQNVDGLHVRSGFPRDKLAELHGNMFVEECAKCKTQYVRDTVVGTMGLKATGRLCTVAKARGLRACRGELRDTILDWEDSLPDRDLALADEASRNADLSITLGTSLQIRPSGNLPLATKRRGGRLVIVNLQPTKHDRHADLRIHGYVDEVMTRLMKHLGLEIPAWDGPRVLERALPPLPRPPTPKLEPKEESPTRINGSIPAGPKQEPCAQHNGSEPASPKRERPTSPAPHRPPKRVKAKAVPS", "UniProt Q9GZT9, whole entry": "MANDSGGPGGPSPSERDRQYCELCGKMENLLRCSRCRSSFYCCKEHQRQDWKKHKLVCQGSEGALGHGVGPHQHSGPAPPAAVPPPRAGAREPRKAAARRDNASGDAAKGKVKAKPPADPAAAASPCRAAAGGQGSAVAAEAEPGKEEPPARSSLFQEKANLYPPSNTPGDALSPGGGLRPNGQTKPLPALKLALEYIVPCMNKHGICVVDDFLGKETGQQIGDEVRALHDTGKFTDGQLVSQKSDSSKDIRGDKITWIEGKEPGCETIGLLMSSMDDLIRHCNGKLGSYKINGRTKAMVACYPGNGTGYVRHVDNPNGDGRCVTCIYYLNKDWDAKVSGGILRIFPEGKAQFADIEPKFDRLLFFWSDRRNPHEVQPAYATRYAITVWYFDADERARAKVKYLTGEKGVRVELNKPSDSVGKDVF", "UniProt P45983, 1-384 isoform 3": "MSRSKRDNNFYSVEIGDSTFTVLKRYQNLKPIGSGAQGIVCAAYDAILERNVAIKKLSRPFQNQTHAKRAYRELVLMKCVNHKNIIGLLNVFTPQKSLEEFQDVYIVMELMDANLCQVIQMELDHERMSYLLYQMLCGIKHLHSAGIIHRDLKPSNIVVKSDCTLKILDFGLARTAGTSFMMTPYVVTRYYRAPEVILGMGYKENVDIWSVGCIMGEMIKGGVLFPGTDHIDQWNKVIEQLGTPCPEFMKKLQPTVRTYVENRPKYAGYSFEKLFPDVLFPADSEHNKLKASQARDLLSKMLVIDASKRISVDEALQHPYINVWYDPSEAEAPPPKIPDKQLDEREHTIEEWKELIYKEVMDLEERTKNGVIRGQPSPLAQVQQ", "UniProt P30043, whole entry": "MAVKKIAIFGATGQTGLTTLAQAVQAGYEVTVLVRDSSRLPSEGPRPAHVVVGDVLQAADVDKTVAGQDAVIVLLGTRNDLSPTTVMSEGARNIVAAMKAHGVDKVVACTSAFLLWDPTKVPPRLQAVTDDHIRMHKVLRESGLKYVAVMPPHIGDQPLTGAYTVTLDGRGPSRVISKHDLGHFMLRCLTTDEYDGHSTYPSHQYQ", "UniProt P53004, whole entry, looked up": "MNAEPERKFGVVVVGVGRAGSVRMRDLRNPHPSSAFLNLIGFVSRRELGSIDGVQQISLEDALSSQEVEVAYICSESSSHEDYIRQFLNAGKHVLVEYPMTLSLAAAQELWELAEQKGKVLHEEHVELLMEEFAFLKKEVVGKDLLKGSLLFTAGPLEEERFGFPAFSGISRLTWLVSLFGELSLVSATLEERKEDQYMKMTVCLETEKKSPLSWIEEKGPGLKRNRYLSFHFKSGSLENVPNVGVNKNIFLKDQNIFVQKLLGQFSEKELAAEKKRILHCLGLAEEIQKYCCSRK"}, "data": "Assay results pooled from the literature", "RIPK1": "Receptor-interacting serine/threonine-protein kinase 1 (RIPK1, Homo sapiens, UniProt Q13546)", "fdhA": "fdhA (Pseudomonas putida, UniProt P46154)", "SIRT6": "NAD-dependent protein deacylase sirtuin-6 (SIRT6, Homo sapiens, UniProt Q8N6T7)", "EGLN1": "Egl nine homolog 1 (EGLN1, Homo sapiens, UniProt Q9GZT9)", "MAPK8": "Mitogen-activated protein kinase 8 (MAPK8, Homo sapiens, UniProt P45983)", "BLVRB": "Flavin reductase (NADPH) (BLVRB, Homo sapiens, UniProt P30043)", "note": "Protocols differ between the studies behind these lines. ± marks the error that the study gave."}
{"Compound": "O=C(O)c1ccc(-c2nc(-c3ccccc3F)c3sccn23)cc1", "tested on": "BLVRA (Homo sapiens, UniProt P53004)", "assay": "enzyme activity, inhibitor", "setting": "10 µM, added: biliverdin IXα 25 µM", "measurement": "remaining activity", "result": "96%"}
{"Compound": "O=C(NC1CC=C(c2cc3c(Nc4cc5ncsc5cc4F)ncnc3s2)CC1)NC1CCCCC1 (stereo not drawn)", "tested on": "RIPK1", "assay": "kinase activity", "setting": "1 µM", "how to read": "relative to: control", "measurement": "remaining activity", "result": "96 ± 2%"}
{"Compound": "O=C(O)c1ccnc(C(=O)O)c1Nc1ccc([N+](=O)[O-])cc1", "tested on": "fdhA", "assay": "inhibitor, spectrophotometric", "setting": "200 µM, counterscreen", "measurement": "remaining activity", "result": "100%"}
{"Compound": "Nc1nonc1-n1cc(C(=O)N/N=C/c2cccc([N+](=O)[O-])c2)nn1", "tested on": "SIRT6", "assay": "deacetylase activity, Fluor de Lys", "setting": "100 µM, added: Ac-RHKK(Ac)-AMC substrate", "measurement": "remaining activity", "result": "20.4 ± 5.14%"}
{"Compound": "COc1ccc(Nc2c(C(=O)O)ccnc2C(=O)O)cc1", "tested on": "EGLN1", "assay": "inhibitor, HTRF", "setting": "400 µM", "measurement": "remaining activity", "result": "100%"}
{"Compound": "COc1cc([C@@H]2c3cc4c(cc3[C@@H](OC3CCCCC3)[C@H]3COC(=O)[C@H]23)OCO4)cc(OC)c1OC", "tested on": "Leishmania infantum", "test system": "promastigote, iRFP", "measurement": "EC50", "result": "66.4 ± 6.8 µM"}
{"Compound": "Cc1cc(NC(=O)c2cccc(NC(=O)C3=CC(C)(C)CCC3=O)c2)ccc1Nc1nccc(-c2cccnc2)n1", "tested on": "MAPK8", "assay": "kinase activity, inhibitor", "setting": "400 µM, unit not given, added: 10 mM GSH", "how to read": "relative to: DMSO", "measurement": "remaining activity", "result": 0.0364}
{"Compound": "O=C(O)c1cccc(-c2nc(-c3ccccc3F)c3sccn23)c1", "tested on": "BLVRB", "setting": "concentration not given", "measurement": "remaining activity", "result": "47%"}
{"Compound": "COc1ccc(CNc2c(C(=O)O)ccnc2C(=O)O)cc1", "tested on": "fdhA", "assay": "inhibitor, spectrophotometric", "setting": "200 µM, counterscreen", "measurement": "remaining activity", "result": "100%"}
{"Compound": "COc1cccc(/C=N/NC(=O)c2cn(-c3nonc3N)nn2)c1O", "tested on": "SIRT6", "assay": "deacetylase activity, Fluor de Lys", "setting": "100 µM, added: Ac-RHKK(Ac)-AMC substrate", "measurement": "remaining activity", "result": "17.21 ± 0.04%"}
{"Compound": "COC(=O)[C@@]1(C)C=C(C(=O)Nc2cccc(C(=O)NC34CC(Nc5nccc(-c6cccnc6)n5)(C3)C4)c2)C(=O)CC1", "tested on": "MAPK8", "assay": "kinase activity, inhibitor", "setting": "0.5487 µM, added: 10 mM GSH", "measurement": "remaining activity", "result": "0.0941 fraction of control"}
{"Compound": "COC(=O)[C@@H]1C(c2nc3ccccc3s2)=Cc2cc3c(cc2[C@H]1c1cc(OC)c(OC)c(OC)c1)OCO3", "tested on": "Leishmania infantum", "test system": "promastigote, iRFP", "measurement": "EC50", "result": "> 100 µM"}
{"Compound": "CCc1c(-c2ccco2)nn2c(=O)cc(-c3ccc(C(=O)O)cc3)[nH]c12", "tested on": "BLVRB", "setting": "concentration not given", "measurement": "remaining activity", "result": "37%"}
{"Compound": "O=C(O)c1ccc(Nc2c(C(=O)O)ccnc2C(=O)O)cc1", "tested on": "fdhA", "assay": "inhibitor, spectrophotometric", "setting": "200 µM, counterscreen", "measurement": "remaining activity", "result": "100%"}
{"Compound": "CC(=O)N1CC=C(c2cc3c(Nc4cc5ncsc5cc4F)ncnc3s2)CC1", "tested on": "RIPK1", "assay": "kinase activity", "setting": "1 µM", "how to read": "relative to: control", "measurement": "remaining activity", "result": "107 ± 4%"}
{"Compound": "Cc1cc(O)nc2ccc(NS(=O)(=O)c3cc(Cl)cc(Cl)c3O)cc12", "tested on": "malate dehydrogenase", "assay": "aggregation counter-screen", "setting": "100 µM, pH 7.0, 1% DMSO", "measurement": "remaining activity", "result": "71%"}
{"Compound": "COc1ccccc1Nc1c(C(=O)O)ccnc1C(=O)O", "tested on": "fdhA", "assay": "inhibitor, spectrophotometric", "setting": "200 µM, counterscreen", "measurement": "remaining activity", "result": "76%"}
{"Compound": "Cc1c(-c2ccccc2)nn2c(=O)cc(-c3cccc(-c4nnn[nH]4)c3)[nH]c12", "tested on": "BLVRB", "setting": "concentration not given", "measurement": "remaining activity", "result": "37%"}
{"Compound": "CCCSc1nc(N[C@@H]2C[C@H]2c2ccc(F)c(F)c2)c2nnn([C@@H]3C[C@H](O)[C@@H](O)[C@H]3O)c2n1", "test system": "rat, female, plasma", "setting": "oral, 60 mg/kg/day ticagrelor, day 1", "measurement": "AUC", "result": "30.8 µM·h"}
{"Compound": "O=C(O)c1ccccc1Nc1c(C(=O)O)ccnc1C(=O)O", "tested on": "EGLN1", "assay": "inhibitor, HTRF", "setting": "400 µM", "measurement": "remaining activity", "result": "100%"}
{"Compound": "CCc1c(-c2ccco2)nn2c(=O)cc(-c3cccc(C(=O)O)c3)[nH]c12", "tested on": "BLVRB", "setting": "concentration not given", "measurement": "remaining activity", "result": "14%"}
{"note": "Some of these lines once more:"}
{"Compound": "COC(=O)[C@@]1(C)C=C(C(=O)Nc2cccc(C(=O)NC34CC(Nc5nccc(-c6cccnc6)n5)(C3)C4)c2)C(=O)CC1", "tested on": "MAPK8", "assay": "kinase activity, inhibitor", "setting": "0.5487 µM, added: 10 mM GSH", "measurement": "remaining activity", "result": "0.0941 fraction of control"}
